Measured values from different studies.
Each line is one published result; not all experiments were run side by side.

For CC(C)(C)NC(=O)C1CCN(Cc2cccc(/N=N/c3ccc(C(F)(F)F)cc3)c2)CC1, “absorption maximum, trans isomer” read 326 nm (DMSO; 25 µM, 25 °C).
CC[C@@H]1CN(C(=O)NCC(F)(F)F)C[C@@H]1c1cnc2cnc3[nH]ccc3n12 — result for “absorption lag time”: 0.469 h (population PK model; healthy, RA and CD subjects, plasma; oral, immediate-release formulation).
OC[C@H]1O[C@@H](Oc2cc3c(O)cc(O)cc3[o+]c2-c2ccc(O)c(O)c2)[C@H](O)[C@@H](O)[C@@H]1O gave an absorption maximum of 550 nm (buffer without protein; 50 µM, pH 7).
For Cn1cncc1-c1c(F)cncc1NC(=O)c1c(N)nn2cc(F)cnc12, “absorption lag time” read 0.369 h (population PK model; patients with solid tumours, plasma; oral).
CNC(=O)c1c(C)oc2cc(Oc3ncnc4cc(OC)c(OC)cc34)ccc12: “absorption rate constant ka” 2.52 per h (final population PK model; subject weighing 70 kg; oral).
Cc1ccc2c(c1)sc(-c1ccc(N(C)C)cc1)[n+]2C — result for “absorption maximum wavelength”: 413 nm (PBS; free dye).
COC(=O)c1ccccc1C1=c2cc3c4c(c2Oc2c1ccc1cccc(O)c21)CCC[N+]=4CCC3.[Cl-] has an absorption maximum of 643 nm (12.5 mM aqueous NaOH; pH 12.1, 10% DMSO).
For CC(C)(C)NC(=O)C1CCN(Cc2cccc(/N=N/c3cccc(F)c3)c2)CC1, “absorption maximum, trans isomer” read 329 nm (DMSO; 25 µM, 25 °C).
The absorption maximum of OC[C@H]1O[C@@H](Oc2cc3c(O)cc(O)cc3[o+]c2-c2cc(O)c(O)c(O)c2)[C@H](O)[C@@H](O)[C@@H]1O is reported as 568 nm (buffer without protein; 50 µM, pH 7).
For CC(C)(C)NC(=O)C1CCN(Cc2ccc(/N=N/c3ccccc3)cc2)CC1, “absorption maximum, cis isomer” read 439 nm (DMSO; 25 µM, 25 °C).
With COC(=O)c1ccccc1-c1c2ccc(=N)cc-2oc2c1ccc1cccc(O)c12.Cl the absorption maximum was 621 nm (12.5 mM aqueous NaOH; pH 12.1, 10% DMSO).
COc1cc(-c2[o+]c3cc(O)cc(O)c3cc2O[C@@H]2O[C@H](CO)[C@@H](O)[C@H](O)[C@H]2O)ccc1O has an absorption maximum of 548 nm (buffer without protein; 50 µM, pH 7).
Under “absorption maximum, trans isomer”, COc1ccc(/N=N/c2cccc(CN3CCC(C(=O)NC(C)(C)C)CC3)c2)cc1 is recorded as 356 nm (DMSO; 25 µM, 25 °C).
